{"data": "Assay results gathered from unrelated publications", "target": "Mitogen-activated protein kinase kinase kinase kinase 2 (MAP4K2, Homo sapiens, UniProt Q12851)", "note": "Each line is one published result; not all experiments were run side by side. Several values in a cell are separate wells, animals, samples, runs or records."}
{"SMILES": "Cc1cnc2nc1Nc1cccc(c1)COC/C=C/COCc1cc(ccc1OCCN1CCOCC1)N2", "test": "binding", "setting": "0.1 µM", "endpoint": "remaining binding", "result": "81%"}
{"SMILES": "N[C@H]1CC[C@H](Nc2nccc(-c3cccnc3Oc3ccc(NC(=O)NC4CC4)c4ccccc34)n2)CC1", "test": "kinobead competition pulldown", "system": "HEK293/HCT116 lysate mixture", "setting": "10 µM, 1 h, 4 °C", "how to read": "lower = stronger competition", "endpoint": "log2 LFQ intensity", "result": "23.9 and 24 and 24.2"}
{"SMILES": "CC(C)=CC1OC(C)(C)C2C=C3C(=O)C(Cl)=CC(O)C3C3C(O)C4OC4C(=O)C132 (stereo not drawn)", "test": "cell-free assay, competition with immobilised ligand", "setting": "10 µM", "endpoint": "remaining binding", "result": "76%"}
{"SMILES": "COc1cc(Nc2nc(C)cc(-c3cnn4nc(OC)ccc34)n2)cc(C(F)(F)F)c1", "test": "inhibitor", "setting": "1 µM", "how to read": "relative to: control", "endpoint": "remaining activity", "result": "99%"}
{"SMILES": "C=CC(=O)N1CCCC(n2c(=O)c3ncccc3n(Cc3ccc(Oc4ccccc4)cc3)c2=O)C1 (stereo not drawn)", "test": "cell-free assay, competition with immobilised ligand", "setting": "1 µM", "endpoint": "remaining binding", "result": "100%"}
{"SMILES": "COc1c(Cl)cccc1Nc1c(-c2ccncc2C#C[C@@]2(C)CCCN2C(=O)/C=C/CN(C)C)[nH]c2c1C(=O)NCC2", "test": "binding, competition with immobilised ligand", "setting": "3 µM", "endpoint": "remaining binding", "result": "62%"}
{"SMILES": "CNC(=O)C[C@H](Cc1ccc(C#N)cc1)NC(=O)c1cc(-c2ccc(CN[C@H](C)c3ccc(C)cc3)o2)ccc1Cl", "test": "enzyme activity, inhibitor", "setting": "1 µM", "endpoint": "activity vs control", "result": "106%"}
{"SMILES": "C=CC(=O)N1CCc2ccc(-n3c(=O)ccc4cnc5ccc(-c6cnn(C)c6)cc5c43)cc21", "test": "KINOMEscan", "setting": "1 µM", "how to read": "relative to: DMSO control", "endpoint": "remaining binding", "result": "100%"}
{"SMILES": "CNC1C[S+]2CC[S+]3CC[S+](C1)[Ru-4]321([N]=C=S)[n]2c3ccc(OC)cc3c3c4c(c5cc(F)c[n+]1c5c32)C(=O)NC4=O (stereo not drawn)", "test": "KinomeScan", "setting": "0.1 µM", "how to read": "relative to: untreated", "endpoint": "remaining binding", "result": "89%"}
{"SMILES": "NC(=O)C[C@H]1CCc2sc3ncnc(O[C@H]4CC[C@H](N5CCOCC5)CC4)c3c21", "test": "enzyme activity, inhibitor", "setting": "10 µM", "endpoint": "inhibition", "result": "9%"}
{"SMILES": "O=C(Cc1ccc(OCc2ccccc2)cc1)NC1(C(=O)O)CCN(C(=O)c2ccc(-c3cccc(Cl)c3)cc2)CC1", "test": "enzyme activity, inhibitor", "setting": "10 µM", "endpoint": "activity vs control", "result": "116%"}
{"SMILES": "CCN1CCN(Cc2ccc(C(=O)Nc3ccc(C)c(NCc4cnc5[nH]ccc5c4OC)c3)cc2C(F)(F)F)CC1", "test": "binding, competition with immobilised ligand", "setting": "1 µM", "endpoint": "remaining binding", "result": "5.2%"}
{"SMILES": "Nc1ncc(-c2cc(-c3cnn(CC(F)(F)F)c3)ncc2F)nc1C(=O)NC1CNCC(F)C1 (stereo not drawn)", "test": "enzyme activity", "setting": "1 µM", "how to read": "relative to: DMSO control", "endpoint": "remaining activity", "result": "96.4%"}
{"SMILES": "Cc1cccc(O[C@H]2CCC[C@@H](C(C)CNCc3ccncc3)C2)c1 (relative stereo)", "test": "enzyme activity, inhibitor", "setting": "10 µM", "endpoint": "inhibition", "result": "-4%"}
{"SMILES": "C=CC(=O)Nc1cccc(-c2cnc3[nH]cc(C(=O)NC(C)(C)C)c3n2)c1", "test": "kinase activity", "setting": "0.1 µM", "endpoint": "inhibition", "result": "71%"}
{"note": "Repeated from above:"}
{"SMILES": "N[C@H]1CC[C@H](Nc2nccc(-c3cccnc3Oc3ccc(NC(=O)NC4CC4)c4ccccc34)n2)CC1", "test": "kinobead competition pulldown", "system": "HEK293/HCT116 lysate mixture", "setting": "10 µM, 1 h, 4 °C", "how to read": "lower = stronger competition", "endpoint": "log2 LFQ intensity", "result": "23.9 and 24 and 24.2"}
